Experimental data from different studies.
Protocols differ between the studies behind these lines. “And” joins repeats or separate records; there may be more than shown.
Target: G protein-coupled receptor kinase 6 (GRK6, Homo sapiens, UniProt P43250)

assay | setting | scale | quantity | value | SMILES
enzyme activity, inhibitor | 1 µM | – | activity vs control | 98% | CNC(=O)C[C@H](Cc1ccc(C#N)cc1)NC(=O)c1cc(-c2ccc(CN[C@H](C)c3ccc(C)cc3)o2)ccc1Cl
kinase activity | 0.1 µM, together with: ATP at Km | – | inhibition | 25.2% | CCn1cc(C(=O)O)c(=O)c2c(N)c(F)c(NC3CCCCC3)cc21
enzyme activity | 100 nM, human enzyme, together with: 10 µM ATP | relative to: untreated | remaining activity | 53% | O=C=[N][Ru-4]123([n]4c5ccc(O)cc5c5c6c(c7cc(F)c[n+]1c7c54)C(=O)NC6=O)[S+]1CC[S+]2CC[S+]3CC1 (stereo not shown)
kinase activity, inhibitor | 1 µM | relative to: untreated control | remaining activity | 101% | COc1c(OCCCN2CCOCC2)ccc2c1N=C(NC(=O)c1cnc(N)nc1)N1CCN=C21
kinase activity, KinaseProfiler | 0.03 µM, species human | relative to: control | remaining activity | 104% | COc1ccc(NC(=O)Nc2ccc3c(c2)C(=O)N(C(C)CO)CC(C)C(CN(C)Cc2ccc4c(c2)OCO4)O3)cc1 (stereo not shown)
enzyme activity, inhibitor | 10 µM | – | inhibition | -4% | NC(=O)C[C@H]1CCc2sc3ncnc(O[C@H]4CC[C@H](N5CCOCC5)CC4)c3c21
cell-free assay, inhibitor | 1 µM | – | inhibition | 2% | C=CC(=O)N1Cc2nc(-c3cc(-c4cc(Cl)cnc4Cl)c(F)cc3F)n(-c3ccncn3)c2C1
enzyme activity, inhibitor | 10 µM | – | inhibition | 0% | Cc1cccc(O[C@H]2CCC[C@@H](C(C)CNCc3ccncc3)C2)c1 (relative stereo)
enzyme activity, inhibitor | 0.1 µM | – | inhibition | 6% | CN1CCN(Cc2ccc(-c3ccc(CO[C@H]4CCC[C@@H]4NC(=O)c4cc(-c5cnn(C)c5)cnc4N)cc3)cc2)CC1
kinase activity | 0.1 µM | – | inhibition | 7% and 6% | C=CC(=O)Nc1cccc(-c2cnc3[nH]cc(C(=O)NC(C)(C)C)c3n2)c1
enzyme activity, inhibitor | 1 µM | – | inhibition | 11% | Cc1nc2c(F)cc(-c3nc(Nc4ccc(CNC(=O)CCCCCCC(=O)NO)cc4)ncc3F)cc2n1C(C)C
enzyme activity, inhibitor | 10 µM | – | activity vs control | 98% | O=C(Cc1ccc(OCc2ccccc2)cc1)NC1(C(=O)O)CCN(C(=O)c2ccc(-c3cccc(Cl)c3)cc2)CC1
enzyme activity, inhibitor | 1 µM | – | inhibition | -3% | CN1CC[C@@H](COc2cnc(C#N)cc2-c2ccn3nc(NC(=O)C4CC4)cc3c2)C1
kinase activity, inhibitor, ProQinase kinase profiling | 25 µM | relative to: control | remaining activity | 79% and 90% | COCC12C(=O)NC3C4(C(OC)CC1O)C1CC5(O)C(OC)C(O)C(OC(C)=O)(C1C5OC(=O)c1ccccc1)C3(O)C(OC)C24 (stereo not shown)
enzyme activity, inhibitor | 10 µM | – | inhibition | -2% | NC(=O)[C@@H](O)C[C@H]1CCc2sc3ncnc(O[C@H]4CC[C@H](N5CCOCC5)CC4)c3c21
enzyme activity | 1 µM | relative to: DMSO control | remaining activity | 92.1% | Nc1ncc(-c2cc(-c3cnn(CC(F)(F)F)c3)ncc2F)nc1C(=O)NC1CNCC(F)C1 (stereo not shown)

Some of these lines once more:
assay | setting | scale | quantity | value | SMILES
cell-free assay, inhibitor | 1 µM | – | inhibition | 2% | C=CC(=O)N1Cc2nc(-c3cc(-c4cc(Cl)cnc4Cl)c(F)cc3F)n(-c3ccncn3)c2C1
kinase activity, inhibitor | 1 µM | relative to: untreated control | remaining activity | 101% | COc1c(OCCCN2CCOCC2)ccc2c1N=C(NC(=O)c1cnc(N)nc1)N1CCN=C21
